Experimental data from different studies.
Each numbered part is a random draw from the data of one study; scales do not carry over between parts. Substitutions count along the parent as printed.

Study 1 — method: EMSA with sequencing; molecule type: double-stranded DNA, one strand shown; medium: in vitro; concentration: 10 and 20 nM; baseline: negative control set to 0; direction: higher = stronger binding; endpoint: normalised bound fraction
Target: Hepatocyte nuclear factor 3-alpha (Foxa1, Mus musculus, UniProt P35582, residues 1-468, full length assumed)
UniProt P35582, sequence (whole entry, looked up): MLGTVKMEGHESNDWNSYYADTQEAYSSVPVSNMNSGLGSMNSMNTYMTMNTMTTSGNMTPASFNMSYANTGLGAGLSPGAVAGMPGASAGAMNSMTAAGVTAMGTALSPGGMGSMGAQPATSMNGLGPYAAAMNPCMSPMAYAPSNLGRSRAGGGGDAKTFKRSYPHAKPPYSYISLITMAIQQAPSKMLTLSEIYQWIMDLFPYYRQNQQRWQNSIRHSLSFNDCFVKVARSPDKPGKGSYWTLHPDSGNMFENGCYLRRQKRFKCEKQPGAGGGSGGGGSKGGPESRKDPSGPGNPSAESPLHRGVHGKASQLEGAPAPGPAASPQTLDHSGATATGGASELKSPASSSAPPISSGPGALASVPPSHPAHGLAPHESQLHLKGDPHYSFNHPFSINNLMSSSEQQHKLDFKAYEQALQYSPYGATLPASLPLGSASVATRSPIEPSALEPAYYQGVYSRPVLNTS
Setting: whole designed probe, mean of two concentrations, ends assumed
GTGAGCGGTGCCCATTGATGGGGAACTATTTTTACTAATTTGTATTTTCTAATTTTTTTTTTTTTTTTTTTTAAATTCACTAGGGTTTTTCTCTCTTTGACATTTAAACAAGAACACAAAGTAAACAGGAAATACAATTTCCAATGTCTTTTAAAGATAATGTTTTTATATAAGTTGTGTGTTCTCACTAGTTTTTTCTTCTTGAGGTAATGTATTAATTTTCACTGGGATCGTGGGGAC: 0.344 ratio
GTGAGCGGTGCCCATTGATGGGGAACCACACACACACACACACACACACACACACGAACATGAACATAATAAGAACGGGAAGAAAAGCCCAGATTTTCCTCACCATGTGCCACCCAGCCATGTTTACACTGATCACAAGTCCTCAGGTTAATCTTCCCTGGCTGAAAACATTCACATGTGCAGTTTACCAGTGTGCAACGGATGGCCTGAAAAATAAAGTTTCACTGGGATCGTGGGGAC: 0.188 ratio
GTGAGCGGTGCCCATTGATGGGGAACGTAAAATTAATCCAAAGACACGGAAAGTCCATGAATTTCAGTTCTAACAGAAAATTTTTGAATTAAATTTTCAAAAGGTTGTAACTGACAGAGTAATCTTGTACTAGGTACAAGAGGTAATGAATTCTGAAGTTATGAAGTATTTGTATTCCAAGTGGAAATGCAATTGTTTACCTGAATTTTGGGCCCAGAATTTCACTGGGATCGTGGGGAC: 0.0867 ratio
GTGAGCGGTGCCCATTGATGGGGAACGGATTCTTTCATTATACAAATACATGTTATTTTTGAATTTCAGAAGAAATAATGATATGTCAATCTATTGAGTGCTAACTAAAAGTTCTCTTTGTTTACTTAGCTTTCTCTTAGTTGTAAGAAAGAAAAAGACTTCTTGCATGAAAATAGTACGTTGCGGGAAGAAATTGCCATGCTAAGACTGGAGCTAGACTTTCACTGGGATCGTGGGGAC: 0.489 ratio
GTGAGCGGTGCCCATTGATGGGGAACTTTCCAGCCCTTAGTTTCTGGCATTTAACCTGACTCTGGTCCCTGAATGGCATGGGAGTGCTTTCAACCACAGGCTGACTCATTCATGCCACTTGTTTGCTTTTCTGTCACATTCTGATCTACAGAGATCTTTATTTGCTTTGTGTTTCCAATGGAGAAAGAGCTTGGGAAGGGAGGATCCTAATTGTCTAAATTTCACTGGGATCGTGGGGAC: 0.507 ratio
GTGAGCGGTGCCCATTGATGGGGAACTCCACAGTAGAAACGAAGGAGATGACAGATACCCCGGCACCAAAACTGACACCAGGTTTTTGTTGCTTCTTCCACTATATAATGGAGAAGTTCTGTTTACTCTAGTTGTGCAACTACTGTTAACATTGGCTTAAGGAAACCCAAGAAACTGAATCACATCAAAGGTATGTCAGAGGTATGTGAACCAGAGCAATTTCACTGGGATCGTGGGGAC: 0.362 ratio
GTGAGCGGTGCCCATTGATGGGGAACGTGTTCAAGGAGGAGCTTTATTAACTCAGCACTTCTAACAATTTCCTAGGTACTTATAAGACATTTCCAAAGTCAAGTTAATGAGCTGCAGAGTAAACAAGAGTCTCTCGTAGTTTCTGAAGTTCGAGAAGAAATTCTACAGAAAGAGGTAAGAAATGGCCAAAATATTGGGCTAAAATAAGTTTTTCTTAGGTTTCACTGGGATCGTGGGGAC: 0.317 ratio
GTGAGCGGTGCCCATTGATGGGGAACCTGCACCACTCAGCCCCTCCTAGTCCGCTGGAGAAAGTGGCTGAGGGGGTGGTGGGGGATAATTGCATTTCCAAAGTCCGGGCAATCAGCCAATGTAAACAGGCACCTGCGTCACTGTGTGGGCTCTCTAGGCAACAGGTAAAATACATCAAATACACACAATTTCCTGACATTCCAATGCATTTCTGCGTGATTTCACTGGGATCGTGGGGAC: 0.26 ratio

Study 2 — target: CREM, bZIP domain (human); method: DHFR protein complementation; medium: yeast; baseline: wild-type JUN-FOS pair; direction: higher = stronger binding; endpoint: binding fitness
Setting: single substitutions, most at no-binding floor
Starting sequence: JUN, bZIP domain (human); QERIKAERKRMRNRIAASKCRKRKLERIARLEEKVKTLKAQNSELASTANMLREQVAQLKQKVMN; partner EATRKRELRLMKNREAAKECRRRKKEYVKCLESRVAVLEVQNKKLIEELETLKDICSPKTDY
A40E: -1.42 natural log
L31N: -1.41 natural log
K36G: -1.52 natural log
E33N: -1.48 natural log
R53P: -1.51 natural log
K39W: -1.55 natural log
V56A: -1.45 natural log
E54P: -1.55 natural log
Q41T: -1.41 natural log
L31C: -1.57 natural log
V35K: -1.36 natural log

Study 3 — target: CCNE1, cyclin fold, Cln2 fusion (human); method: yeast growth competition, sequencing; medium: yeast; setting: weak parent motif; baseline: not given; direction: higher = stronger binding; endpoint: normalised enrichment score
Starting sequence: DBF4 docking peptide (human); DDIVSKLVFDFVE
K6A: 0.43
V8A: -0.0856
F9A: -0.0273
E13A: 0.507
L7A: 0.0234
D10A: 0.485
I3A: 0.669

Other studies, line by line
PhoQ, residues 284 288 289 292 302 303 ALAMYF
fold induction (PhoP, residues 12 14 15 18 19 LHHSG (Escherichia coli, UniProt P23836); Sort-seq, item: YFP reporter; E. coli; PhoQ-PhoP variant library, together with: 10 µM Mg2+; baseline: high Mg2+ state, higher = stronger signaling): 7.85

A few entries again (study 2):
K36G: -1.52 natural log
V56A: -1.45 natural log
Q41T: -1.41 natural log
